Assay results pooled from the literature.
Each line is one published result; not all experiments were run side by side. ± gives the spread as reported.
CHRM1: Muscarinic acetylcholine receptor M1 (CHRM1, Homo sapiens, UniProt P11229)
UniProt P11229, sequence (whole entry, looked up): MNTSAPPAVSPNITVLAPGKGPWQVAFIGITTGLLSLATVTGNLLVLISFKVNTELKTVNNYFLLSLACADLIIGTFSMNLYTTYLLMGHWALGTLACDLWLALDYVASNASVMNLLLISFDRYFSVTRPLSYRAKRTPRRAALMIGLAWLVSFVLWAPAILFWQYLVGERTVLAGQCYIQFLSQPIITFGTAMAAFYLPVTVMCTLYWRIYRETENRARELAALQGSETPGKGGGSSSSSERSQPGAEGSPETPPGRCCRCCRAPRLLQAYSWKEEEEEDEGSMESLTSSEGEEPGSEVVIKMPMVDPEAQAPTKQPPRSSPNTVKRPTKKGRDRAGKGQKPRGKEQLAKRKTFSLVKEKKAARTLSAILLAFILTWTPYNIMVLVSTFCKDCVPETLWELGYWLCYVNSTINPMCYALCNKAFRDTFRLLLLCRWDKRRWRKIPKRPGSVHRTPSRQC
T1: ssRNA, CUG repeat (Homo sapiens); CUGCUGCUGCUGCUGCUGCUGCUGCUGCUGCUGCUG
UniProt Q92731, sequence (whole entry, looked up): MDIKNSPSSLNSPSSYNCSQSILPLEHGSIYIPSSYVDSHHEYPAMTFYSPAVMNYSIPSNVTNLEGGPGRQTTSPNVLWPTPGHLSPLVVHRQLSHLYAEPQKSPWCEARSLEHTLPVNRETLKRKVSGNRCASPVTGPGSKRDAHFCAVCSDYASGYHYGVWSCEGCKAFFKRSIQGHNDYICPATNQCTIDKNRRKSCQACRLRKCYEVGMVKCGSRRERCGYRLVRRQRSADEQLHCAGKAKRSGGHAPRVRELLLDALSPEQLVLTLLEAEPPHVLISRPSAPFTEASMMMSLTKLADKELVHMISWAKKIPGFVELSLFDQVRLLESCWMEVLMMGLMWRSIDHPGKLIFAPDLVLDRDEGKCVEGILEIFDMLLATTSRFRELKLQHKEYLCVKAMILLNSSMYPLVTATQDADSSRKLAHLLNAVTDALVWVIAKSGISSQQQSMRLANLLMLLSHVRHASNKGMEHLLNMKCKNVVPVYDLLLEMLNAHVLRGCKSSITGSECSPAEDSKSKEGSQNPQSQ
UniProt P22309, sequence (whole entry, looked up): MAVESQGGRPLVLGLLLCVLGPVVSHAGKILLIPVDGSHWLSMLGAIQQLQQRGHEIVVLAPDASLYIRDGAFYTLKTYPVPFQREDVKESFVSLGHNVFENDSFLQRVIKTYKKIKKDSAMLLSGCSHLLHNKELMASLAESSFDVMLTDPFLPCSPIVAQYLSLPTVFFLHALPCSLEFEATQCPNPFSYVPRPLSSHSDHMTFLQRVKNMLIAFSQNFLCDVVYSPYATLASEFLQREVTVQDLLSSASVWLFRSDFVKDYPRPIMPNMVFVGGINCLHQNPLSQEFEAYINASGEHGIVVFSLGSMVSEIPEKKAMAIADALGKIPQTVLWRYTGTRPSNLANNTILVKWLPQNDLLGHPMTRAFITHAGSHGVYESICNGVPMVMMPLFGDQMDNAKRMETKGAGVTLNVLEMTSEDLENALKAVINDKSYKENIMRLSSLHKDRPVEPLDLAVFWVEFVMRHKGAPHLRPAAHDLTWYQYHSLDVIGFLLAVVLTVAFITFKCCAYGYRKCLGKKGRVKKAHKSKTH
UniProt Q9Y5Y9, sequence (whole entry, looked up): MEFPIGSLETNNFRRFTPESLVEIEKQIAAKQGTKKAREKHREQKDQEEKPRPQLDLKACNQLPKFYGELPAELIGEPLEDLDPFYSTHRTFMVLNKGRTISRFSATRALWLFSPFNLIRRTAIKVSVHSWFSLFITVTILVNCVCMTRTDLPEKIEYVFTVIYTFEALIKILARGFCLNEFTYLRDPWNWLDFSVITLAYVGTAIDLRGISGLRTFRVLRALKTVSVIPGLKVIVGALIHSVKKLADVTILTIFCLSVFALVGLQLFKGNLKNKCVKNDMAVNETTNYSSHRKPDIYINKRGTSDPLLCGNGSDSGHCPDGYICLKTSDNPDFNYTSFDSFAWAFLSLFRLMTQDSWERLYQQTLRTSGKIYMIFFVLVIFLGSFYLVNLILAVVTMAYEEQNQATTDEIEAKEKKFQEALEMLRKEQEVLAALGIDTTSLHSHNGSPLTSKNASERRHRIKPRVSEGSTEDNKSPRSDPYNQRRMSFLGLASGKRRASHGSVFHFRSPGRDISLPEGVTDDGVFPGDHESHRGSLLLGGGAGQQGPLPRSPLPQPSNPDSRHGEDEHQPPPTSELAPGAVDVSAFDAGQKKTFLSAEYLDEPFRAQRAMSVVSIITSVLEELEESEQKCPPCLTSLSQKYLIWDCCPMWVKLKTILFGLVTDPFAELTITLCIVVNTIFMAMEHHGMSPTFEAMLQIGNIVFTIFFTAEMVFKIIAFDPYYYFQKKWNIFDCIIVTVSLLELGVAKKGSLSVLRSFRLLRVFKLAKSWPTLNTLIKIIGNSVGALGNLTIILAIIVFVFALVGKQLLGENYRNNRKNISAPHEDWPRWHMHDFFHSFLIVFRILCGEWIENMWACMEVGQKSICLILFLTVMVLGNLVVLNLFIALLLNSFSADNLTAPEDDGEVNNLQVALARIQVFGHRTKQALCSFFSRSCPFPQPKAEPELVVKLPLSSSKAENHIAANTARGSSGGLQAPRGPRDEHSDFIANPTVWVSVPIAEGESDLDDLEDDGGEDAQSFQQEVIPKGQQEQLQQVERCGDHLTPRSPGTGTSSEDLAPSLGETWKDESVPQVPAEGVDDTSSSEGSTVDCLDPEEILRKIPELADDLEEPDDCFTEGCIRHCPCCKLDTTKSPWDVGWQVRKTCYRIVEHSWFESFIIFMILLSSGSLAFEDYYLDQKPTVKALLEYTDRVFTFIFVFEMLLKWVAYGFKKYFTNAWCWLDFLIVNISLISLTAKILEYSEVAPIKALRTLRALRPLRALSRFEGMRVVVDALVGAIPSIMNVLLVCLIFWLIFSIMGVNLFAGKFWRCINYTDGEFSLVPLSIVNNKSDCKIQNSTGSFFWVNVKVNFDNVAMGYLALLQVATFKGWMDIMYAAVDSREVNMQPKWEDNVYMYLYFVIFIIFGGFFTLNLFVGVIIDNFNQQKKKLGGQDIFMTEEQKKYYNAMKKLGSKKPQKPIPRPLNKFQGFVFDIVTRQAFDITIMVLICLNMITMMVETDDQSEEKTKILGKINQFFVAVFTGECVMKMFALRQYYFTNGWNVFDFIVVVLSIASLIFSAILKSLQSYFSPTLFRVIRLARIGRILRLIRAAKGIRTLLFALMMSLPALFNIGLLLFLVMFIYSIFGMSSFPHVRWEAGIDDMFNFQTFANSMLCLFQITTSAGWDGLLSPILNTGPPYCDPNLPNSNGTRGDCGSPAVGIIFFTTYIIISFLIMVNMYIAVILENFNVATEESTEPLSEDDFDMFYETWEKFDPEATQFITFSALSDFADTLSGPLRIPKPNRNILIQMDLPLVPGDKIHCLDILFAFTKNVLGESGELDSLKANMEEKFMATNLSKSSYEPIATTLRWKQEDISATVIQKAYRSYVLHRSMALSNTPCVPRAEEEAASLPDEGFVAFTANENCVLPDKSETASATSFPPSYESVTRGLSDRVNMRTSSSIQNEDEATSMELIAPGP
UniProt Q9UM07, sequence (whole entry, looked up): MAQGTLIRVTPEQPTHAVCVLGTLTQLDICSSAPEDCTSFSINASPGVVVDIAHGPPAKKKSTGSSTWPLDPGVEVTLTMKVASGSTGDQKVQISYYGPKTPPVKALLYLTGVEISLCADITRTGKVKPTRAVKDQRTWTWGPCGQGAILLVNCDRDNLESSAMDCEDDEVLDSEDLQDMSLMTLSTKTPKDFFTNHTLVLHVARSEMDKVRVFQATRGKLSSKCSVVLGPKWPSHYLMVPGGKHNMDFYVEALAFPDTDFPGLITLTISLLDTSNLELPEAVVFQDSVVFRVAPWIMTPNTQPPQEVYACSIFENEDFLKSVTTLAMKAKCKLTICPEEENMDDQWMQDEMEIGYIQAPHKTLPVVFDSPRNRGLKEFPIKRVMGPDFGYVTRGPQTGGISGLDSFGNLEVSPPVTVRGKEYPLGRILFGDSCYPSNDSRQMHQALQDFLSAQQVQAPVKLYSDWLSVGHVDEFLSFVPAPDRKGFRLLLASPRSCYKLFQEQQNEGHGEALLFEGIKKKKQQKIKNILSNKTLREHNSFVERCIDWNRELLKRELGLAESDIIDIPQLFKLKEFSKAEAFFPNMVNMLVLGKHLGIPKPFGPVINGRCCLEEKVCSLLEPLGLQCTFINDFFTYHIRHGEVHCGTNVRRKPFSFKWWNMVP
UniProt P08173, sequence (whole entry, looked up): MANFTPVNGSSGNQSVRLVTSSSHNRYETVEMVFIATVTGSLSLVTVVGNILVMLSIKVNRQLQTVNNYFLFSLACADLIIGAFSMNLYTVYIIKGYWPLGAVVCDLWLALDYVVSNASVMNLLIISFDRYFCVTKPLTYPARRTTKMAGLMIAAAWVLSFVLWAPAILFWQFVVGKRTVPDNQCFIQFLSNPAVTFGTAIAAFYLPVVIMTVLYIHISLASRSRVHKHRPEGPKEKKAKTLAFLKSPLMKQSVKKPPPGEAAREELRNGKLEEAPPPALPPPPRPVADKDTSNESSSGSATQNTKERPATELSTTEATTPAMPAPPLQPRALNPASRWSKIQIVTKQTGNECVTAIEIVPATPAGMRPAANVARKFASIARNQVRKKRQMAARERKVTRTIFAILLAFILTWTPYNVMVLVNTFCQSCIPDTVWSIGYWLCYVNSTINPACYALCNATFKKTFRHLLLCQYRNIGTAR

The IC50 of O=C(O)C1Nc2c(O)cccc2C2C=CCC12 (stereo not drawn) is reported as 242 µM (T1, ssRNA, CUG repeat (Homo sapiens); competition with MBNL1, competitor, TR-FRET).
Cn1ncc2cc(COc3ccccc3-c3cc(=O)n(C4CCCCC4O)cn3)ccc21 (stereo not drawn): “ΔpEC50 of ACh” 1.24 ± 0.23 log units (CHRM1; positive allosteric modulator, IP1 accumulation; CHO-M1 cells; 1 µM, 60 min, 37 °C, together with: ACh; baseline: ACh alone, higher = stronger potentiation).
For N[C@@H](Cc1ccc(O)c(O)c1)C(=O)O, “substrate inhibition constant” read 31.9 µM (DOPA 4,5-dioxygenase (Anabaena cylindrica, UniProt K9ZE23); substrate, spectrophotometry; pH 7.0, 25 °C, together with: sodium ascorbate 100 mM).
`WFRMSIRGGYKKKK` has a phosphorylation of less than 1% (Serine/threonine-protein kinase PLK1 (PLK1, Homo sapiens, UniProt P53350, T210D); substrate; peptide; Km of kinase, 1 h, 30 °C; baseline: optimal peptide).
COC(=O)c1scc(C)c1NC(=O)C(C)N1CC(C)OC(C)(C)C1 (stereo not drawn) — result for “capacity factor k′”: 44 (Sodium channel protein type 10 subunit alpha (SCN10A, Homo sapiens, UniProt Q9Y5Y9); cell membrane chromatography; higher = stronger binding).
The retention factor of COc1ccc2cc1Oc1ccc(cc1)C[C@H]1c3c(cc4c(c3Oc3cc5c(cc3OC)CCN(C)[C@@H]5C2)OCO4)CCN1C is reported as 22.9 (Heat shock protein HSP 90-alpha, C-terminal domain (HSP90AA1, Homo sapiens, UniProt P07900); binding, zonal affinity chromatography; pH 7.4, 25 °C).
With O=C(O)[C@H]1O[C@@H](Oc2ccc3c(=O)cc(-c4ccccc4)oc3c2)[C@H](O)[C@@H](O)[C@@H]1O the Vmax was 1.34 ± 0.02 nmol/mg/min (UDP-glucuronosyltransferase 1A1 (UGT1A1, Homo sapiens, UniProt P22309); glucuronidation, substrate, Supersomes).
Cc1ccc(COc2ccccc2-c2cc(=O)n(C3CCCCC3O)cn2)cc1 (stereo not drawn) — result for “change in baseline activity”: -6.4 ± 3.9 (CHRM1; allosteric agonist, IP1 accumulation; CHO-M1 cells; 1 µM, unit not given; baseline: maximum ACh response).
`CIKVAVS` has a maximum inhibition of 0% (human polyclonal IgM rheumatoid factor; binding to mAb II-481; peptide; combined CDR peptides, serum WEAK).
The kinact of NC1=CC(=O)c2ccc(-c3ccccn3)nc2C1=O is reported as 0.002 s⁻¹ (Protein-arginine deiminase type-4 (PADI4, Homo sapiens, UniProt Q9UM07); enzyme activity, inhibitor).
COc1ccc(C)c2sc(NC(=O)C3=C(C)OCCO3)nc12: activity “inactive” (Muscarinic acetylcholine receptor M4 (CHRM4, Homo sapiens, UniProt P08173); calcium mobilization, positive allosteric modulator; CHO expressing hM4 and Gqi5; concentration not given, together with: acetylcholine EC20).
O=C(c1ccc(COc2ccccc2-c2cc(=O)n(C3CCCCC3O)cn2)cc1)N1CCCCC1 (stereo not drawn) — result for “change in baseline activity”: 26.9 ± 3.2 (CHRM1; allosteric agonist, IP1 accumulation; CHO-M1 cells; 10 µM, unit not given; baseline: maximum ACh response).
With C/C1=C2/N[C@H]([C@H](CC(N)=O)[C@@]2(C)CCC(=O)NC[C@@H](C)OP(=O)(O)O[C@H]2[C@@H](O)[C@@H](n3cnc4cc(C)c(C)cc43)O[C@@H]2CO)[C@]2(C)N=C(/C(C)=C3N=C(/C=C4N=C1[C@@H](CCC(N)=O)C\4(C)C)[C@@H](CCC(N)=O)[C@]\3(C)CC(N)=O)[C@@H](CCC(N)=O)[C@]2(C)CC(N)=O.[Co] the Km was 2.8 ± 0.4 µM (cobA (Limosilactobacillus reuteri, UniProt Q50EJ2, F112H); enzyme activity, substrate; anoxic, Ti(III) citrate reduced, together with: ATP).
For O=c1cc(-c2ccccc2OCc2ccc(Cl)nc2)ncn1C1CCCCC1O (stereo not drawn), “change in baseline activity” read -6.4 ± 2.3 (CHRM1; allosteric agonist, IP1 accumulation; CHO-M1 cells; 1 µM, unit not given; baseline: maximum ACh response).
With CN(c1ccccc1)S(=O)(=O)C1CC2OC1C(c1ccc(O)cc1)=C2c1ccc(O)cc1 (stereo not drawn) the efficacy was -25 ± 3% (Estrogen receptor beta (ESR2, Homo sapiens, UniProt Q92731); reporter gene, antagonist; HepG2; together with: estradiol 10 nM; baseline: E2 response, negative is inverse agonism).

A few entries again:
For N[C@@H](Cc1ccc(O)c(O)c1)C(=O)O, “substrate inhibition constant” read 31.9 µM (DOPA 4,5-dioxygenase (Anabaena cylindrica, UniProt K9ZE23); substrate, spectrophotometry; pH 7.0, 25 °C, together with: sodium ascorbate 100 mM).
